Results collected from several papers.
Parts stem from different laboratories: compare values within a part only.
UniProt O76039, sequence (whole entry, looked up): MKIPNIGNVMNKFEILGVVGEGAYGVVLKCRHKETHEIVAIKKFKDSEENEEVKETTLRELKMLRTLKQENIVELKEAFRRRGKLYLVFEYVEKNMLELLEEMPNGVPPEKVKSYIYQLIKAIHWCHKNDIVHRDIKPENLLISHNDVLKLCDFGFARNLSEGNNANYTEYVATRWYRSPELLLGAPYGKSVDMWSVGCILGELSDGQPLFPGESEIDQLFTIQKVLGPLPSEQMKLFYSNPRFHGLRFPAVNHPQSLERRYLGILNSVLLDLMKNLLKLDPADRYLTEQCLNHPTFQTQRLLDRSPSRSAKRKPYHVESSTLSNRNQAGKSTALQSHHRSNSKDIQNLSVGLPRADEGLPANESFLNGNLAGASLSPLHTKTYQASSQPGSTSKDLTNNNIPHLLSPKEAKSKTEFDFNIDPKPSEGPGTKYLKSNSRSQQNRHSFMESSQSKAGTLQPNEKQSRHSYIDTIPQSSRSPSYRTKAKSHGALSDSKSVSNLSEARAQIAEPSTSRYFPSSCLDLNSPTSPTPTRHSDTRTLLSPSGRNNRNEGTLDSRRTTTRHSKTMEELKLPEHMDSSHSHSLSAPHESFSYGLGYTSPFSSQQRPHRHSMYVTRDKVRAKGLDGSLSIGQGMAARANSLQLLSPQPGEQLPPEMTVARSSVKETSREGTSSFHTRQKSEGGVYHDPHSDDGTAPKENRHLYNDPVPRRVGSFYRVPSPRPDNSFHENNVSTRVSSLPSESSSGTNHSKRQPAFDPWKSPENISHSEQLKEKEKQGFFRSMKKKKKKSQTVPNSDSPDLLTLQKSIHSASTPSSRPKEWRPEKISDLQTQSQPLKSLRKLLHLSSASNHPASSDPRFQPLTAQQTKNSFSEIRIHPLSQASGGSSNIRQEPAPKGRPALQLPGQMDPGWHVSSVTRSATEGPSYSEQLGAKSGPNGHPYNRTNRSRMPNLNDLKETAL

Set 1
Target: Protein C-ets-1 (ETS1, Homo sapiens, UniProt P14921, residues 1-441, full length assumed)
UniProt P14921, sequence (whole entry, looked up): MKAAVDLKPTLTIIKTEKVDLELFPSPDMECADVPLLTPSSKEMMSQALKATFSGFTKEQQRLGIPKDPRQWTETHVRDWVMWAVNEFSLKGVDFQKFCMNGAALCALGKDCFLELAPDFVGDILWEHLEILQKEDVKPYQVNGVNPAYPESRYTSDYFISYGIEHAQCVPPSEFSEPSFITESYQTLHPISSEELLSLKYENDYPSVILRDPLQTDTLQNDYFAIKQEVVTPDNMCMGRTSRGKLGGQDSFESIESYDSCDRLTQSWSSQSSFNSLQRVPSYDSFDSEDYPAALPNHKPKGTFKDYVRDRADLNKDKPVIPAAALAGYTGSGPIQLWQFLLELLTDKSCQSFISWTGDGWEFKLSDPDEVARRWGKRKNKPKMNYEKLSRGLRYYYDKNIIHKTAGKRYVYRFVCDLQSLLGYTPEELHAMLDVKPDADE
Method: protein-binding microarray
Molecule type: double-stranded DNA, one strand shown
Sample: in vitro
Concentration: not given
Notes: k-mer, scored over probes, only values ≥0.25
Direction: higher = stronger binding
Oligonucleotide | E-score
GTCCGGCA | 0.332
ACCGGGAG | 0.35
CCAGCGGA | 0.295
ACGGATGC | 0.445
CCATATCC | 0.379
CCGTATCC | 0.433
AGGAGGAT | 0.279
CGGTACCG | 0.386

Set 2
Target: RNA binding protein fox-1 homolog 2, RRM domain, GST-SBP tag (RBFOX2, Homo sapiens, UniProt O43251-10, residues 100-194)
Method: RNA Bind-n-Seq
Molecule type: RNA
Sample: in vitro
Concentration: 365 nM
Notes: natural RNA segment, single round, ends assumed
Reference: no-protein control
Direction: higher = stronger binding
All sequences stand within: GGGAGUUCUACAGUCCGACGAUC … UGGAAUUCUCGGGUGCCAA
Residues (chain): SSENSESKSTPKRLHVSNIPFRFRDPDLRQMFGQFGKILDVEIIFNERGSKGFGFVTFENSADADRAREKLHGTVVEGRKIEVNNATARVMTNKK
Oligonucleotide | RBNS enrichment (R)
AAACGCCCUACUUCUAAGCUCGUCCUUAGUAGCCCAGGCUGGUCUAGAACCUCUGGUCUUCCUUUCUCUGUCCCGAGUACUGAAAUUGCAGCAGACACCUUCAUGCCUUG | 0.341
UUAGGAUUUUACGUUAUUGUUAUUAUGGAAAGUGAUUGUGAUGCUAUUUAUCUUCAGGGUCACUCUGGGCAAAGAGAAGGUCCUCAGCCAUGCCCCCAGCACCUUGCACA | 3.71
CAUGUGUUCACACUGUGUGUAAACAUUCACUGAAGAUUUUUUCUUUGUGCAUUGCUGACUGUUCAAACAUAACAAGUAUUAUUAAAAUUAAAUAUUAACUGACCGAUCCU | 0.778
UACUUAUUUAUCCUAGUAUUCCUAACCUGUCAGAAUAAUAAAUAUUGGAACCAAGACAUGGUAAACAUGUGUUGUGCUGGUUUCUGUUCAUUUAAAUCUGUCGGUUGCUG | 0.46
AUUUCACCACUGGAACACAGGUGUGCUGCUUGUUAGCAAGCAGAGCAAUAAAGAUGUGCUGGAUGUCUUGUUAAUGUUUUCUUUUAAAAAGAAGCGUCAGUGUCAGCCGG | 0.278
CACUGUGAACGGAGGGAAGUGCGUGGGGUCAGGUGACCUGACUCCAACGAUUUGGUCAAGGAGGUUAUGAUUCUUCAUAGUCACUCUCCUCAUGAAUCCUUCCCAUUUAU | 0.271
UAUAUUAUGGAGAAAGCAAAACCCUGCAAAUGACCAAAUGGUGUCCAAAGAGCAGCAUGACAUUGGCAUCAGCUGAAUAACCAGGGGCACAUGGGGGAACGUGGAUGGGA | 14.1
UUCAUGCCCCCUUUGACUGAUCAGUGUGAUAAGGACUUUAGGAAAAAAAGCAUGUAUGUUUUUUACUGUUUGUAAUAAGUACUUUCGUUAAUCUUGCUGCUUAUGUGCCA | 1.35

Mixed results
Molecule | tested on | assay | test system | conditions | endpoint | value
TRAPPC4 (Homo sapiens, UniProt Q9Y296) | TRAPPC1 (Homo sapiens, UniProt Q9Y5R8) | cross-linking MS | cell fractions | with: DSSO | cross-linked residues | K41 to K51
CCS(=O)(=O)c1cc2cc(C[C@@](O)(CC(C)(C)c3ccc(F)cc3C(N)=O)C(F)(F)F)[nH]c2cn1 | Cyclin-dependent kinase-like 5 (CDKL5, Homo sapiens, UniProt O76039) | cell-free assay, competition with immobilised ligand |  | 1 µM | remaining binding | 77%
WNT10B (Homo sapiens, UniProt O00744) | TAF1A (Homo sapiens, UniProt Q15573) | cross-linking MS | cell fractions | with: DMTMM | cross-linked residues | E312 to K322
BYSL (Homo sapiens, UniProt Q13895) | RRP12 (Homo sapiens, UniProt Q5JTH9) | cross-linking MS |  | hits only | interaction screen | cross-linked
SRSF2 (Homo sapiens, UniProt Q01130) | SRSF7 (Homo sapiens, UniProt Q16629) | cross-linking MS |  | hits only | interaction screen | cross-linked

For quick reference, copied from above (set 2):
Oligonucleotide | RBNS enrichment (R)
UAUAUUAUGGAGAAAGCAAAACCCUGCAAAUGACCAAAUGGUGUCCAAAGAGCAGCAUGACAUUGGCAUCAGCUGAAUAACCAGGGGCACAUGGGGGAACGUGGAUGGGA | 14.1
